# Experimental data of several laboratories.
# Every numbered part comes from another study and shows a few of its results, in no order.

# Sample 1 — technique: universal PBM; form: double-stranded DNA, one strand shown; sample: in vitro; concentration: not given; direction: higher = stronger binding
# Target: Sal-like protein 4, full length isoform B (SALL4, Homo sapiens, UniProt Q9UJQ4-2, residues 1-616)
# Setting: 8-mer, flanks averaged, mean of replicates
# Residues (chain): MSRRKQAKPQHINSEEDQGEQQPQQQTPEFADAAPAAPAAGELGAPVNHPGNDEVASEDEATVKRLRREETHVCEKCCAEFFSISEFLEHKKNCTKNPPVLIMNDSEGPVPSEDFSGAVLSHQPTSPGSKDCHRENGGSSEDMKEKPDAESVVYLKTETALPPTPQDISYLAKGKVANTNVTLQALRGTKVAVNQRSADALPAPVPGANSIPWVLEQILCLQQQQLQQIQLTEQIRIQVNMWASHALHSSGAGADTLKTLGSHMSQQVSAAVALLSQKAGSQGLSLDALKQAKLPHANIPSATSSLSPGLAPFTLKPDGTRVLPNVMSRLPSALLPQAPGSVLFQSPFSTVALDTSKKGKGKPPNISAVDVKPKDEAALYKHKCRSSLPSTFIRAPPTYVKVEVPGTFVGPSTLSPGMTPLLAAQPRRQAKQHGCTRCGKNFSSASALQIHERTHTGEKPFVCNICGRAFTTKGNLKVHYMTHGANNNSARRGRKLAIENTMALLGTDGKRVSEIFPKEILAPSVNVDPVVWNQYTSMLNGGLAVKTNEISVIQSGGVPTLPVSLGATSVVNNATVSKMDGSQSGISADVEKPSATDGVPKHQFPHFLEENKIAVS
Sequence,E-score
CGGAGCAA,0.0443
CCGGCTCC,-0.384
ACTATAAA,0.309
ACCTTTCC,0.157
CAAAAAGA,0.0794

# Sample 2 — technique: protein-binding microarray; form: double-stranded DNA, one strand shown; sample: in vitro; concentration: 0.8 µM; setting: whole 60-bp probe, no competitor; direction: higher = stronger binding; shared flanks, not repeated: … GTCTTGATTCGCTTGACGCTGCTG
# Target: Centromere-binding protein 1, full length, N-terminal tag (CBF1, Saccharomyces cerevisiae, UniProt P17106, residues 1-351)
# Sequence of UniProt P17106 (whole entry, looked up): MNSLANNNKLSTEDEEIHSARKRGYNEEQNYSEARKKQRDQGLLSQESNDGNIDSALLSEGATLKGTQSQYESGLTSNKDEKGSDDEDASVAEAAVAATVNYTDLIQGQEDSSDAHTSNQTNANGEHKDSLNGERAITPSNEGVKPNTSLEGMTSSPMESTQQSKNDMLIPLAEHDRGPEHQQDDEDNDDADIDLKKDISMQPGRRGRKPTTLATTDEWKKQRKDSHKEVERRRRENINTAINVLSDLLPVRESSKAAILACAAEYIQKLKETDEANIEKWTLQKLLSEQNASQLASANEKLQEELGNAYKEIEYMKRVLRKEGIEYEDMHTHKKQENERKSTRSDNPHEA
Sequence,fluorescence intensity [a.u.]
GAATGAAGAAAAAGGCTGATGGTCGACAAGAAATAG,539
CTATCTTGTGGTTGTGGTGGTGCGTGTGAGCAGTTC,655
CTAGATTCTTATAATCACGTATGAACATTCTTATTC,577
GAAGTGCTCATAAGCCACGTCACAGAAAACGATTAG,509
CTAACAACGTCGACGCACGCGATAGCTCATTTCTTC,564

# Sample 3 — technique: protein-binding microarray; form: double-stranded DNA, one strand shown; sample: in vitro; concentration: 250 nM; setting: 60-bp whole probe; added: salmon DNA 0.4 mg/ml; baseline: random background probes; direction: higher = stronger binding
# Target: Interferon regulatory factor 7, full length, phosphomimetic (IRF7, Homo sapiens, UniProt Q92985, residues 1-503, S101K/S471D/S472D/S475D/S476D/S477D/S483D/S484D/S487D)
# Sequence of UniProt Q92985 (whole entry, unmodified, looked up): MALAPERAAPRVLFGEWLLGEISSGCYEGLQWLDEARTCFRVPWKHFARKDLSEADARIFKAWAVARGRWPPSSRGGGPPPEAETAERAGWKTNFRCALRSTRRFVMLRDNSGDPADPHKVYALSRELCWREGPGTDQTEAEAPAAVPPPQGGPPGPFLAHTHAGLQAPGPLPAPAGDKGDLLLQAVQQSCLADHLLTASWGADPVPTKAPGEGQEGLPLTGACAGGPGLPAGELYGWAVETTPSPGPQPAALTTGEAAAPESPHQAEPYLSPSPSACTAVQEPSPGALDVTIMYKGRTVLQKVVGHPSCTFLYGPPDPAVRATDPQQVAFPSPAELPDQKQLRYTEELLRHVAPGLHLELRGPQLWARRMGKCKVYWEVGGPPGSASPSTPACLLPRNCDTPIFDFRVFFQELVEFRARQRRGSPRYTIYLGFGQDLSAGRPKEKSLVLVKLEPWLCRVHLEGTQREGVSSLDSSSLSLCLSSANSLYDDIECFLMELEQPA
Sequence,log fluorescence [z-score]
GCCTAGCACTCATATATATATTATATAACTGTGCTAGTCTTGATTCGCTTGACGCTGCTG,0.726
GCCTAGCACGACGGTTTCGGGTATCTGGACGTGCTAGTCTTGATTCGCTTGACGCTGCTG,6.77
GCCTAGCACGACGAACTGAGTATCGAGAAGTGCTAGGTCTTGATTCGCTTGACGCTGCTG,-0.101

# Mixed results
Substance,target,assay,test system,conditions,scale,quantity,value
"PhoQ, residues 284 288 289 292 302 303 QWQEDG","PhoP, residues 12 14 15 18 19 LYHSL (Escherichia coli, UniProt P23836)","Sort-seq, item: YFP reporter",E. coli,"PhoQ-PhoP variant library, added: 10 µM Mg2+","baseline: high Mg2+ state, higher = stronger signaling",fold induction,17.4
